Measured values pooled from the literature.
Each numbered part is a random draw from the data of one study; scales do not carry over between parts. Values joined by “and” are separate records of one study, mostly repeats; a detail may differ.

Study 1 — species: human; matrix: microsomes or S9; concentration: 2 µM; time: 0.5 h
| Compound | remaining compound [%] |
| --- | --- |
| O=C(CCc1ccsc1)Nc1ccc2c(c1)CNCC2 | 95.7 |
| Cc1ccc(C[C@H](NCc2ccccc2)c2cccs2)cc1 | 0.279 |
| CC(NNc1ccccc1)=C1C(=O)NC(=O)NC1=O | 99 |

Study 2 — cell line: HEK-293T; effect on: pseudovirus infection; technique: FDA-approved drug library counter-screen; organism: VSV pseudotyped with VSV-G; concentration: 10 µM; time: 16 h; reference: vehicle-treated
| Compound | GFP-positive cells [%] |
| --- | --- |
| COc1ccc(CN=c2[nH]c(N3CCC[C@H]3CO)ncc2C(=O)NCc2ncccn2)cc1Cl | 103 |
| CNC1(C)C2CCC(C2)C1(C)C (centres unmarked) | 101 |
| Nc1nc2[nH]cc(CCc3ccc(C(=O)N[C@@H](CCC(=O)O)C(=O)O)cc3)c2c(=O)[nH]1 | 103 |
| CC(=O)O[C@]1(C(C)=O)CC[C@H]2[C@@H]3CCC4=CC(=O)CCC4=C3[C@@H](c3ccc(N(C)C)cc3)C[C@@]21C | 123 |
| CC(=O)O[C@H]1CC[C@@]2(C)C(=CC[C@@H]3[C@@H]2CC[C@]2(C)C(c4cccnc4)=CC[C@@H]32)C1 | 141 |
| CC(=O)N[C@@H](CS)C(=O)O | 87.9 |
| CCCCOc1ccc(C(=O)CCN2CCCCC2)cc1 | 91.1 |
| COc1cc([C@@H]2c3cc4c(cc3[C@@H](O[C@@H]3O[C@@H]5CO[C@@H](C)O[C@H]5[C@H](O)[C@H]3O)[C@H]3COC(=O)[C@H]23)OCO4)cc(OC)c1O | 89.6 |
| c1ccc(CN(CC2=NCCN2)c2ccccc2)cc1 | 112 |
| NCCCC(N)(C(=O)O)C(F)F (centres unmarked) | 106 |
| N[C@@H](Cc1ccc(N(CCCl)CCCl)cc1)C(=O)O | 87 |
| C#C[C@]1(O)CC[C@H]2[C@@H]3CCC4=C(CCC(=O)C4)[C@H]3CC[C@@]21C | 97.7 |
| O=C(OCc1ccccc1)c1ccccc1 | 146 |
| COc1ccccc1OCC(O)CO (centres unmarked) | 94.4 |
| CC1(C)S[C@@H]2[C@H](NC(=O)Cc3ccccc3)C(=O)N2[C@H]1C(=O)O | 80.5 |
| CO/N=C(\C(=O)N[C@@H]1C(=O)N2C(C(=O)O)=C(COC(C)=O)CS[C@H]12)c1csc(N)n1 | 84.5 |

Study 3 — matrix: plasma
SMILES: O=C1CCC(N2Cc3c(ccc4c3OCC43CCN(Cc4ccccc4)CC3)C2=O)C(=O)N1 (centres unmarked)
| system | setting | plasma concentration |
| --- | --- | --- |
| rat Sprague Dawley male | intravenous, 1 mg/kg, 1 h | 202 ng/mL and 169 ng/mL |
| male ICR mice | intravenous, 1 mg/kg, 0.25 h | 199 ng/mL |
| ICR mouse, male | intravenous, 1 mg/kg, 0.25 h | 224 ng/mL and 235 ng/mL |
| male Sprague Dawley rats | intravenous, 1 mg/kg, 4 h | 61.1 ng/mL |
| male Sprague Dawley rats | oral, 3 mg/kg, 0.5 h | 68.3 ng/mL |
| Sprague Dawley rat, male | oral, 3 mg/kg, 6 h | 115 ng/mL and 106 ng/mL |
| Sprague Dawley rat, male | intravenous, 1 mg/kg, 0.083 h | 371 ng/mL and 379 ng/mL |
| male ICR mice | intravenous, 1 mg/kg, 0.5 h | 177 ng/mL |
| male ICR mice | oral, 3 mg/kg, 4 h | 75.7 ng/mL |
| ICR mouse, male | oral, 3 mg/kg, 4 h | 80.8 ng/mL and 146 ng/mL |
| ICR mouse, male | oral, 3 mg/kg, 0.083 h | 65 ng/mL and 93.5 ng/mL |
| male ICR mice | oral, 3 mg/kg, 1 h | 308 ng/mL |
| Sprague Dawley rat, male | intravenous, 1 mg/kg, 0.25 h | 339 ng/mL and 351 ng/mL |
| ICR mouse, male | oral, 3 mg/kg, 0.25 h | 345 ng/mL and 196 ng/mL |
| male ICR mice | intravenous, 1 mg/kg, 24 h | not detected |

Study 4 — cell line: HaCaT; concentration: 100 µM; time: 18 h
| Structure (SMILES) | viability [%] |
| --- | --- |
| C[C@]12CCC(=O)C(O)=C1CC[C@@H]1[C@@H]2CC[C@]2(C)C(=O)CC[C@@H]12 | 74.5 |
| COc1ccc(C(=O)N2CCCC2=O)cc1 | 107 |
| CC(C)(C)NCC(O)c1ccccc1Cl (centres unmarked) | 96.5 |
| Nc1ccncc1 | 108 |
| O=c1[nH]c2ccccc2n1C1CCN(CCCC(c2ccc(F)cc2)c2ccc(F)cc2)CC1 | 18.1 |
| CC(C)C[C@H](CN)CC(=O)O | 113 |
| COc1ccc2c(c1)[C@]13CCCC[C@@H]1[C@H](C2)N(C)CC3 | 98.1 |
